# Published values from different studies.
# A part holds a random share of what one study measured. Changes are numbered by the printed parent chain.

# Study 1
# Target: Eukaryotic initiation factor 4A-I (EIF4A1, Homo sapiens, UniProt P60842, residues 1-406, full length assumed)
# UniProt P60842, sequence (whole entry, looked up): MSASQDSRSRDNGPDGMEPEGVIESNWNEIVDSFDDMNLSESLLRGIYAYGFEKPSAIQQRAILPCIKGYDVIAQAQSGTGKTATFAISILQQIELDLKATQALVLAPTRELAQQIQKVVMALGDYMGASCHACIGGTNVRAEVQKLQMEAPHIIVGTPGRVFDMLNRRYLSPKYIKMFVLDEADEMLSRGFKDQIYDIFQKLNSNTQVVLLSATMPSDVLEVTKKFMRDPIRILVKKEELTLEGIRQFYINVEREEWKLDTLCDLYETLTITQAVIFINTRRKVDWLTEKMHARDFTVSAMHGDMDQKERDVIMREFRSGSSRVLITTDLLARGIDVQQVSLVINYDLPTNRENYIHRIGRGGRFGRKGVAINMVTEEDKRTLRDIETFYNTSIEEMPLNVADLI
# Technique: RNA Bind-n-Seq
# Molecule type: RNA
# Matrix: in vitro
# Concentration: 15 pmol
# Notes: 4-mer, random 30-nt RNA, single round
# With: DMSO vehicle, 2 mM AMP-PNP
# Baseline: input library
# Reading: higher = stronger binding
Strand,4-mer enrichment
CGCA,1.01 fold
UUGU,0.679 fold
CUGU,0.737 fold
UUAG,0.784 fold
CCAG,1.57 fold
UCCA,1.63 fold
CACU,1.11 fold
UCAU,0.912 fold

# Study 2
# Target: PABPC1L2, full length, GST fusion (mouse, UniProt A0ABA7IW68)
# Technique: RNAcompete
# Molecule type: RNA
# Matrix: in vitro
# Concentration: 20 nM
# Notes: 7-mer, probes averaged, single round
# Baseline: mean of 7-mers
# Reading: higher = stronger binding
# Construct (chain): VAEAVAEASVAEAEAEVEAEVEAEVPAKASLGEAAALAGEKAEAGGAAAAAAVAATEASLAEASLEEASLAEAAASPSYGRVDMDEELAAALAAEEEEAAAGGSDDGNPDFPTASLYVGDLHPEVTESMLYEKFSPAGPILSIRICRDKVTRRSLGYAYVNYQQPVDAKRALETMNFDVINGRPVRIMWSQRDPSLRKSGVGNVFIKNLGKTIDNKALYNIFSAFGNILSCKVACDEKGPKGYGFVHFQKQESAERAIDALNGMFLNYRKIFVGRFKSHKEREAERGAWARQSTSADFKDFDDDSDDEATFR
Strand,7-mer Z-score
GAUUUAC,0.00979
UGGGCUC,-0.155
AUGCAGA,0.115
UAUUGCA,-0.173
UGCCCCA,-0.184
CCGUUGA,-0.164
GUUGGUC,-0.264
AUCGUAC,-0.148

# Study 3
# Target: Centromere-binding protein 1, full length, His-tagged (CBF1, Saccharomyces cerevisiae, UniProt P17106, residues 1-351)
# UniProt P17106, sequence (whole entry, looked up): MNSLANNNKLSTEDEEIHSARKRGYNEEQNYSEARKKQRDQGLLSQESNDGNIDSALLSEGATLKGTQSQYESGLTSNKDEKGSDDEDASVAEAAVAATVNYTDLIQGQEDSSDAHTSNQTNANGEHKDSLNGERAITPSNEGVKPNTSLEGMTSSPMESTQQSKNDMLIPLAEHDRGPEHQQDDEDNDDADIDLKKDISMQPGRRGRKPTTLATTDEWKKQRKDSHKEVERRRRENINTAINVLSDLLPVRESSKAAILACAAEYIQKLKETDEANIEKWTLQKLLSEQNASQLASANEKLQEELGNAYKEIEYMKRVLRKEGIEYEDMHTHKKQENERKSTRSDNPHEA
# Technique: competition protein-binding microarray
# Molecule type: double-stranded DNA, one strand shown
# Matrix: in vitro
# Concentration: 2 µM
# Notes: whole 60-bp probe, lowest competitor level
# With: Pho4 competitor, 0.05 µM
# Reading: higher = stronger binding
# All sequences stand within: … GTCTTGATTCGCTTGACGCTGCTG
Strand,fluorescence intensity [a.u.]
TTCGATGATGCTTGTCACGTGAACGAAGACTTCCAG,6700
GATGGATTCAGTCCACACATGAGATTCGCAGGATGT,73.3
AAGGGATGGTACTATCACATGTCTCTTGTATCCGCA,361
CGTCCTAGTGATTTTCACGTGGTGTCCATGAGGAAG,905
TAGAACCAGTATCCACACGTGGTGACAAAAACTCGA,1080
AAAAGTTTGTAGCCACTCGTGAAGTTCTCTGTATGT,99
CTGAAAGAGAAATTGTCCGTGACGAAAAGGAAAAAG,96.6
CGTCCTAGTGATTCCCACGTGTTTTCCATGAGGAAG,870

# Single results of other studies
# Starting sequence: viral docking peptide; KGVKRKLFAEDSS; partner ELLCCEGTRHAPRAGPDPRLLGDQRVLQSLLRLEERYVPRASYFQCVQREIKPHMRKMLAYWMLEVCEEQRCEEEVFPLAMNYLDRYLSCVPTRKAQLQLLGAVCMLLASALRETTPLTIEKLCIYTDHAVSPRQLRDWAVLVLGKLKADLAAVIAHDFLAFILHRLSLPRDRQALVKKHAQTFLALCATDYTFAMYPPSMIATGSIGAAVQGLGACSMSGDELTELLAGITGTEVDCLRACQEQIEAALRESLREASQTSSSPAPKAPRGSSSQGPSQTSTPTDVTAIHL
Substitution,target,assay,test system,conditions,scale,quantity,result
KGVKRKLFKEDSS [A9K],"CCND3, cyclin fold, Cln2 fusion (human)","yeast growth competition, sequencing",yeast,weak parent motif,"baseline: not given, higher = stronger binding",normalised enrichment score,0.296

# Excerpt of the above (study 3):
Strand,fluorescence intensity [a.u.]
TTCGATGATGCTTGTCACGTGAACGAAGACTTCCAG,6700
